{"data": "Assay results collected from several papers", "note": "Every numbered part comes from another study and shows a few of its results, in no order. Positions count from the first letter of the parent shown."}
{"data": "Block 1", "target": "RING finger protein unkempt homolog, zinc fingers 1-6, GST-SBP tag (UNK, Homo sapiens, UniProt Q9C0B0, residues 30-357)", "method": "RNA Bind-n-Seq", "molecule type": "RNA", "medium": "in vitro", "concentration": "not given", "setting": "RNA with constant flanks, human and mouse sites, ends assumed", "relative to": "input RNA pool", "reading": "higher = stronger binding", "all sequences stand within": "GGGAGUUCUACAGUCCGACGAUC … CAACAGAGGAUUGAGCAUCA", "Target sequence (chain)": "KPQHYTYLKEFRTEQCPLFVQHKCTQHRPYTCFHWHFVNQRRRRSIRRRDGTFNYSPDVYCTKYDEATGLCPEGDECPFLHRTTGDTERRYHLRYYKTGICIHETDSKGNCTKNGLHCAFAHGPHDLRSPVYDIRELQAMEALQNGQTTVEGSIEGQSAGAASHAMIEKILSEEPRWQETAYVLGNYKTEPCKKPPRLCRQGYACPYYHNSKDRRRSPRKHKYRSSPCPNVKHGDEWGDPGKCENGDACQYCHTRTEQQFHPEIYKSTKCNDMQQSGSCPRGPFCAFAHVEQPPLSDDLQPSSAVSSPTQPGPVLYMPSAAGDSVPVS"}
{"Sequence": "GAUGGGGGCCUUGUUUUGUUUUGUUUUGGUUUUUGGAGACAGGGUCUCACUGUGUAGUCCUAGCUGGCCUGGAACUCACUAUGUAGAUCAGGCUGGACUGAACUCACAAAGAUCCACCUG", "bound/input enrichment [ratio]": 0.23}
{"Sequence": "CGGCUGGACGGAGGGCCUGUUAUGAACGCAGGCCACCCAAUGGGUGUGAACUCAGAUCCUUUCCUUAUGGCAGCAGGUUCUCUUGGUGGAAACCUGGCUCCAUUUCCAAGGAAUGCAGCU", "bound/input enrichment [ratio]": 0.0456}
{"Sequence": "GGAGGGAUGUUUGGAGCUGGAAUUUACUUUGCUGAAAACUCCUCAAAAAGCAAUCAGUAUGUUUAUGGAAUUGGAGGAGGAACAGGCUGUCCCACACACAAAGACAGAUCAUGUUAUAUA", "bound/input enrichment [ratio]": 0.495}
{"Sequence": "ACCAGAAGAACCCUCCGGAUGUGAGCAGUCCUGGACAGAGCACGUGAGGAGGGGCCCUGGGCUAGCAGUUUGCUGGAUGGGAUUGGCUCCAAGAUGGGAGAUGAAGUCUAAAGGGUUUAU", "bound/input enrichment [ratio]": 0.0998}
{"Sequence": "GCAGAUAUUGAAGUAAUAUGGUCUCAUGCGAUACAAAAAUACUUGGAAAUCCCACUGAAAGAUUUAAAGUAUUAUAGAUGUAUCUUGUUAAUUCCUGAUAUCUAUAAUAAGCAGCAUGUG", "bound/input enrichment [ratio]": 0.247}
{"Sequence": "CUAAAGAUAAGCAAUUUAAAGAAAAUUUUAAAAGGAAUCUUGGAUUAUAAUCAUGAGAUUUUAGGACAGCAAAUUAAUGACUUUACCCUUCCUGAUGUGAACCUUAUUGGGGAGCAUUCU", "bound/input enrichment [ratio]": 1.85}
{"Sequence": "UGGCAAAUGUAGCCCUGCAUCCUCCAGUGUUACCUGGUGUAGAUUUUUUUUUCUGUACCUUUCUAAACCUCUCUUCCCUCUGUGAUGGUUUUGUGUUUAAACAGUCAUCUUCUUUUAAAU", "bound/input enrichment [ratio]": 1.21}
{"Sequence": "AUGGGCUUCAGUGUGGAAGAUGAGUUGCUUAAGAUAUGCUUUUAUACAACUGAUAAAAAUAUACGGGACUUUUUGGUUGAAAUUUUAAAAGAAAAGGAAUGUUUUUCUGAAAAAGAAAGA", "bound/input enrichment [ratio]": 0.414}
{"Sequence": "GGCGGCAUUCCAGAGUCUGCUGGACGCCCAGGCGGACGAGGCCGUGUUAGAUCAUCCAGACUUGAAACAUAUCGACCCAGUGGUUUUAAAACAUUGUCAUGCAGCAGCUGCAACUUACAU", "bound/input enrichment [ratio]": 0.201}
{"Sequence": "GACUACUUCACUUGCAUAACUAAAGCUUAUGAAAUGUUGUCUGAUCCAGUGAAAAGGCGGGCAUUUAACAGUGUAGAUCCUACUUUUGACAACUCAGUUCCUUCUAAAAGUGAAGCUAAG", "bound/input enrichment [ratio]": 0.0634}
{"Sequence": "ACUAACAAAAGUGCCUCAUCAUAAAAAUACAGUUGGUUUUUAGGGUGCCAUAUUGUUAAAAUUAGAUAACUUACUUACAUUGAAUAAACGAAUGCGUUUUAUUGGUAACAGAUAUCAUUA", "bound/input enrichment [ratio]": 0.985}
{"data": "Block 2", "target": "Ras GTPase-activating protein-binding protein 1, RRM domain (G3BP1, Homo sapiens, UniProt Q13283)", "method": "RNA Bind-n-Seq", "molecule type": "RNA", "medium": "in vitro", "concentration": "1 µM", "setting": "whole 134-nt RNA, ends assumed", "together with": "150 mM KCl", "relative to": "input library", "reading": "higher = stronger binding", "all sequences stand within": "GGGAGUUCUACAGUCCGACGAUC … UGGAAUUCUCGGGUGUCAAGG", "sequence of UniProt Q13283 (whole entry, looked up)": "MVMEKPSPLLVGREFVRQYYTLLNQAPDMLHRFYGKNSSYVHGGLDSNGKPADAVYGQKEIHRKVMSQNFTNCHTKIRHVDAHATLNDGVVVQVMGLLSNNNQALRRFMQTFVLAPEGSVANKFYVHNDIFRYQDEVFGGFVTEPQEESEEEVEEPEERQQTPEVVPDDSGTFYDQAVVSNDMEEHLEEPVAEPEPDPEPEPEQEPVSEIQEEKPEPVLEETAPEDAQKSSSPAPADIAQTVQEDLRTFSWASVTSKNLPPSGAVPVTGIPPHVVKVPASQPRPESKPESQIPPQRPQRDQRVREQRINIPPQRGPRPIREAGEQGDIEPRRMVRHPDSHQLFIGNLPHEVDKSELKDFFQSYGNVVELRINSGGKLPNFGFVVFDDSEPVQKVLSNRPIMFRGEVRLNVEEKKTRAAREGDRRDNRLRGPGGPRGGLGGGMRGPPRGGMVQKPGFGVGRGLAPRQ"}
{"Sequence": "UGGGAGGUGGCUUUUGUUUAUUUUUUUAGCUCAUUUCCAGGGGUGGGAAUUUUUUUUUAAUAUGUGUCAUGAAUAAAGUUGUUUUUGAAA", "log2 enrichment": 1.62}
{"Sequence": "CAAGUCCUGUGCUACACAUCGUAUGUACCGAAUCGGGUGGGUUUUUUUGGGAGGGAAAGUAUUAUGUUACGCCGUUCGGAUCUGCACUUC", "log2 enrichment": 0.663}
{"Sequence": "GCAGGAAGUAAAAACAAAUGGAAAUGCUUCGGAUAGUGGCAAAAGUGGGGGUUGCUAAGGAAAGGGUGGGAUGGGAGUGGGUAAAGAGUU", "log2 enrichment": 1.02}
{"Sequence": "AGUCCUGUGCUACACAUCGUAUGUACCGAAUCGGGCCCCCGGCCCCCGGGGCCCCCGGAAAGUAUUAUGUUACGCCGUUCGGAUCUGCAC", "log2 enrichment": -0.711}
{"Sequence": "ACGAUGCAGGUGGGCAUCUUUGGGAAGUGGGGCAAGGGGGGGAUAGGGAGGGGGGUAACACUUUGGGAACAGGUGGUCCCAGGUCGUUUC", "log2 enrichment": -0.652}
{"Sequence": "AAGUCCUGUGCUACACAUCGUAUGUACCGAAUCGGGAAAAGGGAAAAGGGAAAAGGGAAAGUAUUAUGUUACGCCGUUCGGAUCUGCACU", "log2 enrichment": 0.381}
{"Sequence": "CAAGUCCUGUGCUACACAUCGUAUGUACCGAAUCGGGUUUGGGUUUUUGGGAGGGAAAGUAUUAUGUUACGCCGUUCGGAUCUGCACUUC", "log2 enrichment": 0.627}
{"Sequence": "CCUCUGGACGAGACCAGCCAGAUGAGCGACCUCCCGGUGAAGGUGAUCCACGUGGAGAGUGGGAAGAUCCUCACAGGCACAGAUGCCCCC", "log2 enrichment": -0.466}
{"data": "Block 3", "target": "UBE2Q2 UBC core domain (UniProt Q8WVN8)", "method": "yeast two-hybrid", "medium": "yeast", "setting": "mostly zero background", "relative to": "not given", "reading": "higher = stronger interaction", "B1": "TRIM11 RING domain (UniProt Q96F44); chain LSTNLQEEATCAICLDYFTDPVMTDCGHNFCRECIRRCWGQPEGPYACPECRELSPQRNLRP", "B2": "MKRN3 RING domain (UniProt Q13064); chain FAVQRGMDKVCGICMEVVYEKANPNDRRFGILSNCNHSFCIRCIRRWRSARQFENRIVKSCPQCRVTSELVIPSE", "B3": "TRIM41 RING domain (UniProt Q8WV44); chain PVQTLQEEAVCAICLDYFTDPVSIGCGHNFCRVCVTQLWGGEDEEDRDELDREEEEEDGEEE", "B4": "ARIH2 RING domain (UniProt O95376); chain HVPTSHPPHHCAVCMQFVRKENLLSLACQHQFCRSCWEQHCSVLVKDGVGVGVSCMAQDCPLRTPEDFVF", "sequence of UniProt Q8WVN8 (whole entry, looked up)": "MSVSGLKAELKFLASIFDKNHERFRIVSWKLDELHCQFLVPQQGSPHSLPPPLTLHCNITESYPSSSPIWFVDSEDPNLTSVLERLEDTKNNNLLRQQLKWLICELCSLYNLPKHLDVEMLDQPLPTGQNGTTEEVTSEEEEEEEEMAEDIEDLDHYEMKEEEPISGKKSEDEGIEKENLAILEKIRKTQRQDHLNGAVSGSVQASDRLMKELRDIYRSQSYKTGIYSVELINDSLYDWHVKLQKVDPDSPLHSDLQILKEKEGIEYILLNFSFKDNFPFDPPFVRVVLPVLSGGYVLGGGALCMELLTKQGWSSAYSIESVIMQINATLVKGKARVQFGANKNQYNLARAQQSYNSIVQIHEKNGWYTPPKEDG"}
{"Molecule": "B1 (TRIM11 RING domain)", "lacZ reporter activity": 0}
{"Molecule": "B2 (MKRN3 RING domain)", "lacZ reporter activity": 0}
{"Molecule": "ASEEEFQFLRCQQCQAEAKCPKLLPCLHTLCSGCLEASGMQCPICQAPWPLGADTP (PML RING domain (UniProt P29590))", "lacZ reporter activity": 0}
{"Molecule": "B3 (TRIM41 RING domain)", "lacZ reporter activity": 0}
{"Molecule": "B4 (ARIH2 RING domain)", "lacZ reporter activity": 0}
{"data": "Block 4", "target": "Histone acetyltransferase KAT6A, winged helix 1, GST fusion (KAT6A, Homo sapiens, UniProt Q92794, residues 1-85)", "method": "protein binding microarray", "molecule type": "double-stranded DNA, one strand shown", "medium": "in vitro", "concentration": "not given", "setting": "8-mer, flanks averaged, mean of 2 arrays, mostly near background", "relative to": "not given", "reading": "higher = stronger binding", "Construct (chain)": "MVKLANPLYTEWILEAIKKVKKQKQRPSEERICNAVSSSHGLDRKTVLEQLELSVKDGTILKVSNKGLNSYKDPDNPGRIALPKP"}
{"Sequence": "AGAGACAG", "E-score": -0.149}
{"Sequence": "CCCTACAC", "E-score": -0.0363}
{"Sequence": "ATGCATCC", "E-score": -0.15}
{"Sequence": "AACGAGAT", "E-score": -0.142}
{"Sequence": "CCGTAGCC", "E-score": 0.369}
{"Sequence": "GAGCCCGA", "E-score": 0.0245}
{"Sequence": "CGTCGACG", "E-score": 0.289}
{"Sequence": "ATTGACCC", "E-score": -0.0119}
{"Sequence": "CGCCGAAA", "E-score": 0.25}
{"Sequence": "ATTCCCTC", "E-score": -0.148}
{"Sequence": "CTATCCAG", "E-score": -0.169}
{"Sequence": "ATGTTTCG", "E-score": 0.0225}
{"Sequence": "CTGCACGA", "E-score": -0.222}
{"Sequence": "ACTTGCCG", "E-score": 0.176}
{"Sequence": "AAGTATTG", "E-score": -0.0282}
{"Sequence": "CACGGGCG", "E-score": 0.386}
{"Sequence": "GAACCAAC", "E-score": -0.25}
{"Sequence": "ATGCTGGG", "E-score": -0.111}
{"Sequence": "GCGGGGAC", "E-score": 0.333}
{"Sequence": "GTTAGAGA", "E-score": -0.128}
{"Sequence": "CCGCTTTC", "E-score": 0.241}
{"Sequence": "ATGACCAG", "E-score": -0.275}
{"Sequence": "GGGACAAA", "E-score": -0.107}
{"Sequence": "TAAAAGCA", "E-score": -0.126}
{"Sequence": "ACAACATA", "E-score": -0.194}
{"data": "Block 5", "target": "ABI1, truncated, D143A, DHFR fusion (Arabidopsis thaliana)", "method": "DHFR PCA, deep sequencing", "medium": "yeast", "setting": "methotrexate growth selection, single substitutions", "together with": "(+)-ABA 0.032 µM", "relative to": "wild-type fitted maximum", "reading": "higher = stronger binding", "starting sequence": "PYL1, truncated, DHFR fusion (Arabidopsis thaliana); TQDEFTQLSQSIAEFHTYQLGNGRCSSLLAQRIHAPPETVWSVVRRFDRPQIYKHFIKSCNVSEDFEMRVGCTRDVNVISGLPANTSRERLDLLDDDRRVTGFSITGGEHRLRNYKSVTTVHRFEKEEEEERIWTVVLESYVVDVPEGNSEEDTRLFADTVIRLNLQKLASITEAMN"}
{"Substitution": "S9W", "relative binding score [%]": 11.5}
{"Substitution": "L164D", "relative binding score [%]": 2.49}
{"Substitution": "D3H", "relative binding score [%]": 20.3}
{"Substitution": "Q7V", "relative binding score [%]": 26.2}
{"Substitution": "W134A", "relative binding score [%]": 14.7}
{"Substitution": "E147L", "relative binding score [%]": 6.48}
{"Substitution": "E67S", "relative binding score [%]": 9.68}
{"Substitution": "C60V", "relative binding score [%]": 41.4}
{"Substitution": "Q167Y", "relative binding score [%]": -10.8}
{"Substitution": "S26C", "relative binding score [%]": 11.2}
{"Substitution": "N77D", "relative binding score [%]": 30.5}
{"Substitution": "Y115L", "relative binding score [%]": 1.68}
{"Substitution": "G21N", "relative binding score [%]": 6.15}
{"Substitution": "I79N", "relative binding score [%]": 0.46}
{"note": "Repeated from above (block 1):"}
{"Sequence": "ACCAGAAGAACCCUCCGGAUGUGAGCAGUCCUGGACAGAGCACGUGAGGAGGGGCCCUGGGCUAGCAGUUUGCUGGAUGGGAUUGGCUCCAAGAUGGGAGAUGAAGUCUAAAGGGUUUAU", "bound/input enrichment [ratio]": 0.0998}
{"Sequence": "GCAGAUAUUGAAGUAAUAUGGUCUCAUGCGAUACAAAAAUACUUGGAAAUCCCACUGAAAGAUUUAAAGUAUUAUAGAUGUAUCUUGUUAAUUCCUGAUAUCUAUAAUAAGCAGCAUGUG", "bound/input enrichment [ratio]": 0.247}
{"Sequence": "CUAAAGAUAAGCAAUUUAAAGAAAAUUUUAAAAGGAAUCUUGGAUUAUAAUCAUGAGAUUUUAGGACAGCAAAUUAAUGACUUUACCCUUCCUGAUGUGAACCUUAUUGGGGAGCAUUCU", "bound/input enrichment [ratio]": 1.85}
{"Sequence": "UGGCAAAUGUAGCCCUGCAUCCUCCAGUGUUACCUGGUGUAGAUUUUUUUUUCUGUACCUUUCUAAACCUCUCUUCCCUCUGUGAUGGUUUUGUGUUUAAACAGUCAUCUUCUUUUAAAU", "bound/input enrichment [ratio]": 1.21}
{"Sequence": "AUGGGCUUCAGUGUGGAAGAUGAGUUGCUUAAGAUAUGCUUUUAUACAACUGAUAAAAAUAUACGGGACUUUUUGGUUGAAAUUUUAAAAGAAAAGGAAUGUUUUUCUGAAAAAGAAAGA", "bound/input enrichment [ratio]": 0.414}
{"Sequence": "GGCGGCAUUCCAGAGUCUGCUGGACGCCCAGGCGGACGAGGCCGUGUUAGAUCAUCCAGACUUGAAACAUAUCGACCCAGUGGUUUUAAAACAUUGUCAUGCAGCAGCUGCAACUUACAU", "bound/input enrichment [ratio]": 0.201}
